Measurements collected from several papers.
Every numbered part comes from another study and shows a few of its results, in no order.
Sequence of UniProt P46734 (whole entry, looked up): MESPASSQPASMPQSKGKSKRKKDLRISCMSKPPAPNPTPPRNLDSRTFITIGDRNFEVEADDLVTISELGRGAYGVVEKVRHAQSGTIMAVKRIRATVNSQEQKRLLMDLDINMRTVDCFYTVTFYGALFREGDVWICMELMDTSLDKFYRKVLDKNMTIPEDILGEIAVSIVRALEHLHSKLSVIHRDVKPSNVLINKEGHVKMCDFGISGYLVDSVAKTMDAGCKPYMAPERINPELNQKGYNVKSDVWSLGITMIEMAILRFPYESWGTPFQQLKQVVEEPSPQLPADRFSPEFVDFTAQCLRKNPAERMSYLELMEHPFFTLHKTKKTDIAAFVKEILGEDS
Sequence of UniProt Q9NWZ3 (whole entry, looked up): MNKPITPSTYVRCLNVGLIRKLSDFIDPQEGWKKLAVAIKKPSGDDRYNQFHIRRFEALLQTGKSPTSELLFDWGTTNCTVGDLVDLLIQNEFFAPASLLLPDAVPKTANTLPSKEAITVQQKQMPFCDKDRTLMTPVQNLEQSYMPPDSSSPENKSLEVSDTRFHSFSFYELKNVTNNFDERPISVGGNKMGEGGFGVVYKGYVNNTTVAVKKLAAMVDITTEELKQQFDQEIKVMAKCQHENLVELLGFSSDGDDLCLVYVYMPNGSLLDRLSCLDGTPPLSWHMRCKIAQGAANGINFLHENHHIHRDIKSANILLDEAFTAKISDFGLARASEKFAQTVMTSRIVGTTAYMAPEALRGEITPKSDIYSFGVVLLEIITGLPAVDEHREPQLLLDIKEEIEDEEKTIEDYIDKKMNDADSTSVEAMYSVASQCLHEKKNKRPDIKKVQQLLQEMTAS
Sequence of UniProt Q16539 (whole entry, looked up): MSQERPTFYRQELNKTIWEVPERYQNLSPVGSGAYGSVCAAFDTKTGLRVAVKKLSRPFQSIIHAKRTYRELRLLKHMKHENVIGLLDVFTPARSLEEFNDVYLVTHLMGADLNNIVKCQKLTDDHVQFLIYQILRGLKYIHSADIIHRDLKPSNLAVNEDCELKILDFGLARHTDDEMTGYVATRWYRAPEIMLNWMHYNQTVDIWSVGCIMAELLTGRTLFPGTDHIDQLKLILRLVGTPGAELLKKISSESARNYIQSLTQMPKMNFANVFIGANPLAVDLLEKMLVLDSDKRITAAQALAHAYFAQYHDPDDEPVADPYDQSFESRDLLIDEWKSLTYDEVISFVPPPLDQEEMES
Sequence of UniProt P27448 (whole entry, looked up): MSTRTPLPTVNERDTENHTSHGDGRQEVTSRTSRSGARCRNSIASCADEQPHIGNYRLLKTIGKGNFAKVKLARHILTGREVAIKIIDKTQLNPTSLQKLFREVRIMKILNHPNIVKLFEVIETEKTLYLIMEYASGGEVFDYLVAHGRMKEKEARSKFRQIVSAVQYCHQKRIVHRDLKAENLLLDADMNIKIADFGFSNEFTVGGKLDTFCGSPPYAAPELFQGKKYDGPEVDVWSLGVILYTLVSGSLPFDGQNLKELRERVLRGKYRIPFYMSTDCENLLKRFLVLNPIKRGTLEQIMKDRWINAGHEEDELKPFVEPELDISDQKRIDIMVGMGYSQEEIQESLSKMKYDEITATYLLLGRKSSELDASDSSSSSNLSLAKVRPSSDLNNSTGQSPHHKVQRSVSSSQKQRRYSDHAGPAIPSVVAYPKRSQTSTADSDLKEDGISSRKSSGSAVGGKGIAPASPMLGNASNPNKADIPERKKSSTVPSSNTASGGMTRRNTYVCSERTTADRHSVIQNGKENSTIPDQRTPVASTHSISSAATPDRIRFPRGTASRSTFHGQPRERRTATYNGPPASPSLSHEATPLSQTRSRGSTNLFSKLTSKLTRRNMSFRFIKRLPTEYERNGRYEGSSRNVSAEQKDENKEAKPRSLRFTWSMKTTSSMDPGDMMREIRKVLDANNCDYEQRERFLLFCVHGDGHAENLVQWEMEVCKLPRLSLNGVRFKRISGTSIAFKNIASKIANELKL
Sequence of UniProt P53779 (whole entry, looked up): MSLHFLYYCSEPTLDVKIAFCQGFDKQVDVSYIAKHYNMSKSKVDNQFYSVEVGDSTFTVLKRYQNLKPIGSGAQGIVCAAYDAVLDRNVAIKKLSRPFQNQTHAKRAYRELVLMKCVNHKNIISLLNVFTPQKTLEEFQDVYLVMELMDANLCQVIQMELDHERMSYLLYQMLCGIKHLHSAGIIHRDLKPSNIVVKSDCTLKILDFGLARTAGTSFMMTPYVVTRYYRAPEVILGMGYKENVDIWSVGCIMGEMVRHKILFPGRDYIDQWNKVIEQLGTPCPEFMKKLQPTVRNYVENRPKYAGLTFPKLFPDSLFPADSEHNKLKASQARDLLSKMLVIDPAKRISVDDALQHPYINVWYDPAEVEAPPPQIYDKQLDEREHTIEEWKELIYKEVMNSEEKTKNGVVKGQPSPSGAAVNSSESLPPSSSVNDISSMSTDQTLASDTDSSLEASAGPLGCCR
Sequence of UniProt P54760 (whole entry, looked up): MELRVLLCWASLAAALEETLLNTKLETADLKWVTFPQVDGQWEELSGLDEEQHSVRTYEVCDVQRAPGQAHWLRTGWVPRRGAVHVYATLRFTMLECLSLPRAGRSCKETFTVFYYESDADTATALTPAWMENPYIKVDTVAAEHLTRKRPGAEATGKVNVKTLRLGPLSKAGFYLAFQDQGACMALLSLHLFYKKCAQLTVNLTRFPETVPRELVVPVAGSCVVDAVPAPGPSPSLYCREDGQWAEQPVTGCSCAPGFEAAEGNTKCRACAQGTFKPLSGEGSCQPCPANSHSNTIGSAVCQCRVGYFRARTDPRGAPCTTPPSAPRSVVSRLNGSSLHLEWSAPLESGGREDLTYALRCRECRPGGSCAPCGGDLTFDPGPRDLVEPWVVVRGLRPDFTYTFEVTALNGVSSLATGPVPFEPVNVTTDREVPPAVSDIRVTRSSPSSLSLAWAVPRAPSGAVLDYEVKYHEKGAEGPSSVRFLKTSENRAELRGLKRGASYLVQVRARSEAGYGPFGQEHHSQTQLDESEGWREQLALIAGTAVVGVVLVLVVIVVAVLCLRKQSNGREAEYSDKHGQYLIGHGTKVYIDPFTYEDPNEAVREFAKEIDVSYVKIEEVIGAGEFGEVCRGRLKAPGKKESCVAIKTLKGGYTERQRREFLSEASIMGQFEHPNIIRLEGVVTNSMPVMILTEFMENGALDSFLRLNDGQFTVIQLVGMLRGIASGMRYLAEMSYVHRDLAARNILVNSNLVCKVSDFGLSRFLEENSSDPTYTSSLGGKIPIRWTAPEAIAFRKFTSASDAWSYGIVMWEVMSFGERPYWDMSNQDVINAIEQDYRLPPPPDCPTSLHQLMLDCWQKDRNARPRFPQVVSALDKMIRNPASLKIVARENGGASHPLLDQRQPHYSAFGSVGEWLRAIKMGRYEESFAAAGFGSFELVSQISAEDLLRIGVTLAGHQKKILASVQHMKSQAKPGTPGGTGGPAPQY
Sequence of UniProt P29320 (whole entry, looked up): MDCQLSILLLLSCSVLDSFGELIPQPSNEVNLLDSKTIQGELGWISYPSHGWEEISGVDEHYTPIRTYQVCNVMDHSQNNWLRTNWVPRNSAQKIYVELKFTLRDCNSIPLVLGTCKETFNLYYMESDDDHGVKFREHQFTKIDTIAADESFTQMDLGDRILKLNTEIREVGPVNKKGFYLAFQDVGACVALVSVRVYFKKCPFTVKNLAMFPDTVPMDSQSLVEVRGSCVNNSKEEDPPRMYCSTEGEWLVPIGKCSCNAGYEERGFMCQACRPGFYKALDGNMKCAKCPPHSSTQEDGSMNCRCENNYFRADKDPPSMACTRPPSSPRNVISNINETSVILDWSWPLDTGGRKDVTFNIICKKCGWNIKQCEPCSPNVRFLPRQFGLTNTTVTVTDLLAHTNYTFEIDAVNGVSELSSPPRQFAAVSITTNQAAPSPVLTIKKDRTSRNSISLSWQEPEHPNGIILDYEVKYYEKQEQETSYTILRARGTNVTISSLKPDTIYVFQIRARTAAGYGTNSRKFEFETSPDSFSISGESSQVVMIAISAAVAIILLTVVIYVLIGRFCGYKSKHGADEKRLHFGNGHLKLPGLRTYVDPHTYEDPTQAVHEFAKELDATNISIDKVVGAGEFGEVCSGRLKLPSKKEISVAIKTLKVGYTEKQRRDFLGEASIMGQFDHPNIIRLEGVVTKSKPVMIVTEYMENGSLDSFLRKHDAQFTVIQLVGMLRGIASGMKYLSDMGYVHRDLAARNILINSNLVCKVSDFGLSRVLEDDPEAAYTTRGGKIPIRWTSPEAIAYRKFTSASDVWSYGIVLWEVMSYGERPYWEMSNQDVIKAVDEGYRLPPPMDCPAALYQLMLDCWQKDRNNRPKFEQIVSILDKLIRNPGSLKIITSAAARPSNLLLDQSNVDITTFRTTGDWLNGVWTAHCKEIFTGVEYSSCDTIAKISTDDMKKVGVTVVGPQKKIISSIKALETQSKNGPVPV

Series 1
SMILES: CN([C@@H]1CCc2c(CC(=O)O)c3ccccc3n2C1)S(=O)(=O)c1ccc(F)cc1
Effect on: cell-free assay
Method: competition with immobilised ligand
Concentration: 1 µM
Quantity: remaining binding
MAP/microtubule affinity-regulating kinase 3 (MARK3, Homo sapiens, UniProt P27448): 100%
Mitogen-activated protein kinase 14 (MAPK14, Homo sapiens, UniProt Q16539): 100%
Interleukin-1 receptor-associated kinase 4 (IRAK4, Homo sapiens, UniProt Q9NWZ3): 93%
Ephrin type-B receptor 4 (EPHB4, Homo sapiens, UniProt P54760): 95%
Ephrin type-A receptor 3 (EPHA3, Homo sapiens, UniProt P29320): 95%
Mitogen-activated protein kinase 10 (MAPK10, Homo sapiens, UniProt P53779): 100%
Dual specificity mitogen-activated protein kinase kinase 3 (MAP2K3, Homo sapiens, UniProt P46734): 84%

Series 2
Cell line: A-375
Concentration: 100 µM
Time: 36 h
Quantity: viability
CC(Cc1cccc(C(F)(F)F)c1)NCCOC(=O)c1ccccc1 (stereo not drawn): 0.927%
CO/N=C(\C(=O)N[C@@H]1C(=O)N2C(C(=O)OC(C)OC(C)=O)=C(COC(N)=O)CS[C@H]12)c1ccco1 (stereo partly drawn): 117%
CCOc1nc2cccc(C(=O)O)c2n1Cc1ccc(-c2ccccc2-c2nnn[nH]2)cc1: 109%
CC(=O)OCC(=O)[C@@]1(O)CC[C@H]2[C@@H]3CCC4=CC(=O)CC[C@]4(C)[C@@]3(F)[C@@H](O)C[C@@]21C: 105%
CC(=O)N[C@H]1[C@H]([C@H](O)[C@H](O)CO)OC(C(=O)O)=C[C@@H]1N=C(N)N: 110%
CCOC(=O)C1=C(C)NC(C)=C(C(=O)OCC)C1c1ccccc1/C=C/C(=O)OC(C)(C)C: 2.89%

Series 3
Target: Protein kinase C gamma type (PRKCG, Homo sapiens, UniProt P05129)
Effect on: enzyme activity
Mode: inhibitor
Concentration: 0.5 µM
Baseline: control
Quantity: remaining activity
O=c1c2ccccc2[nH]c(=S)n1CCN1CCC(=C(c2ccc(F)cc2)c2ccc(F)cc2)CC1: 100%
CO[C@H]1C[C@@H]2CC[C@@H](C)[C@@](O)(O2)C(=O)C(=O)N2CCCC[C@H]2C(=O)O[C@H]([C@H](C)C[C@@H]2CC[C@@H](O)[C@H](OC)C2)CC(=O)[C@H](C)/C=C(\C)[C@@H](O)[C@@H](OC)C(=O)[C@H](C)C[C@H](C)/C=C/C=C/C=C/1C: 106%
COc1ccc(OC)c2c(=S)c3ccccc3[nH]c12: 77.6%
C#Cc1cccc(Nc2ncnc3cc(OCCOC)c(OCCOC)cc23)c1: 84.1%
Oc1ccc(-c2nc(-c3ccncc3)c(-c3ccc(F)cc3)[nH]2)cc1: 87.9%
O=C(Nc1cccc(Nc2cc(Nc3cccc(C(F)(F)F)c3)ncn2)c1)C1CC1: 102%
CCOC(=O)c1c(C)[nH]c(/C=C2\C(=O)Nc3ccccc32)c1C: 91.9%
Cc1ccc(NC(=O)c2ccc(CN3CCN(C)CC3)cc2)cc1Nc1nc(-c2cccnc2)cs1: 95.8%
Cn1c2ccccc2c2c3c(c4c5ccccc5n(CCC#N)c4c21)CNC3=O: 72.1%
O=C1NC(=O)C(c2cn(CCCn3ccnc3)c3ccccc23)=C1Nc1ccccc1: 51.6%
Cn1sc(=O)n(Cc2ccccc2)c1=O: 86.6%
O=C(O)c1ccc2c3c1cccc3c(=O)n1c3ccccc3nc21: 99.1%
Nc1ncnc2n[nH]c(Nc3ccc(F)cc3)c12: 96%
O=C(CCCc1ccc(-c2ccccc2F)cc1)Nc1ccc(O)cc1: 98%
Cc1cccc(-c2[nH]c(C(C)(C)C)nc2-c2ccc3c(c2)OCO3)n1: 107%
NCCNc1ncc(C(N)=O)c(Nc2cccc(C(F)(F)F)c2)n1: 111%

Series 4
Host: human
Sample: microsomes or S9
Concentration: 2 µM
Time: 0.5 h
Quantity: remaining compound
COCCOc1cc(=O)n2c(c1C(=O)N1CCCC1)CCOCC2: > 99%
COc1cc(=O)[nH]cc1C(=O)N[C@@H]1CCO[C@H]1c1ccc(Cl)cc1: 59.8%
CCOc1cccc(CNC(=O)c2c(OC)cc(=O)n3c2CCCC3)c1: 77.8%
CCOC(=O)c1cc(-c2ccc(S(=O)(=O)NC(C)(C)CC)s2)on1: 0%
N=c1c2c(-c3ccccc3)c(-c3ccccc3)n(Cc3ccccc3)c2ncn1CCO: 77.8%
CSc1[nH]c2c(C(F)(F)F)ccc(C(F)(F)F)c2c(=O)c1C(C)=O: 93.8%
NCc1nc(COc2ccc3ccccc3c2)no1: 21.5%

Repeated from above (series 3):
NCCNc1ncc(C(N)=O)c(Nc2cccc(C(F)(F)F)c2)n1: 111%
C#Cc1cccc(Nc2ncnc3cc(OCCOC)c(OCCOC)cc23)c1: 84.1%
COc1ccc(OC)c2c(=S)c3ccccc3[nH]c12: 77.6%
Cc1cccc(-c2[nH]c(C(C)(C)C)nc2-c2ccc3c(c2)OCO3)n1: 107%
